Assay results pooled from the literature.
A part holds a random share of what one study measured.
Sequence of UniProt P10721 (whole entry, unmodified, looked up): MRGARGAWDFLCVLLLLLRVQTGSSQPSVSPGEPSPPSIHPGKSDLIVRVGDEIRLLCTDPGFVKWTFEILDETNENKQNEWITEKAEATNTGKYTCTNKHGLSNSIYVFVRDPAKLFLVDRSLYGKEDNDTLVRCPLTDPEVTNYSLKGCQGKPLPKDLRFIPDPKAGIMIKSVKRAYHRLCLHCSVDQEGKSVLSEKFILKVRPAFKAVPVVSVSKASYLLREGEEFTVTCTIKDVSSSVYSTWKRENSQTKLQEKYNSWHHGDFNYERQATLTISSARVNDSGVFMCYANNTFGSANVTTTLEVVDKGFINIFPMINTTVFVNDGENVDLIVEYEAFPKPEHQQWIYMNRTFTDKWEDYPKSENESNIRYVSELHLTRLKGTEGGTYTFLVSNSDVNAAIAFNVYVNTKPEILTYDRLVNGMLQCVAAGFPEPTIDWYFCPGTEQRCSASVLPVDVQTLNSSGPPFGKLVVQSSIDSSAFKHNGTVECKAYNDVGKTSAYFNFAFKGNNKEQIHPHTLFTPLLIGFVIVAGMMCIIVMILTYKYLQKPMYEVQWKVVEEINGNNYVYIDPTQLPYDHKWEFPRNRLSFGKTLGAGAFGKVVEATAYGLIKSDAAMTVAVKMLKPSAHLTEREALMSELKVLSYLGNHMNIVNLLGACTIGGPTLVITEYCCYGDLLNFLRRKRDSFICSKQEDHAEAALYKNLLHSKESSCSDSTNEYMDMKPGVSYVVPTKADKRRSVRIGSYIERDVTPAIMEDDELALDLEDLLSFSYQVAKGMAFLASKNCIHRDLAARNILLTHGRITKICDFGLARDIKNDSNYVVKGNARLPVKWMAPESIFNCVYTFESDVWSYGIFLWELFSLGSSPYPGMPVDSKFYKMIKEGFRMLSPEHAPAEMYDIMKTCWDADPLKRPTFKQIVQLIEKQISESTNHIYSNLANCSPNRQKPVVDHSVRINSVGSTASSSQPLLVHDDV
Sequence of UniProt P36896 (whole entry, looked up): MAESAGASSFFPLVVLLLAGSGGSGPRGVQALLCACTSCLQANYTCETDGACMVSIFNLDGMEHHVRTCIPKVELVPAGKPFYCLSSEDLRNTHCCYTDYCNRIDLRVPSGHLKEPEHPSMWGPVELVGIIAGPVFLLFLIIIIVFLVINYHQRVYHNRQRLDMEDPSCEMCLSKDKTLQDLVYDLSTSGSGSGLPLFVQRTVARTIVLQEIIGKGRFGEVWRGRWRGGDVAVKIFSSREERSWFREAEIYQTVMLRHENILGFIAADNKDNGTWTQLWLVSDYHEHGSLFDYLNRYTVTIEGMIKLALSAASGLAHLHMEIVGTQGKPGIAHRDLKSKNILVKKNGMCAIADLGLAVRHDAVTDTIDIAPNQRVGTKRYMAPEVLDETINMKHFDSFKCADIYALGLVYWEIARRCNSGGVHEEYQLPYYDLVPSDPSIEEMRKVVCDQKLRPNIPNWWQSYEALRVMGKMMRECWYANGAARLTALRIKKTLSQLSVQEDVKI
Sequence of UniProt Q8IYT8 (whole entry, looked up): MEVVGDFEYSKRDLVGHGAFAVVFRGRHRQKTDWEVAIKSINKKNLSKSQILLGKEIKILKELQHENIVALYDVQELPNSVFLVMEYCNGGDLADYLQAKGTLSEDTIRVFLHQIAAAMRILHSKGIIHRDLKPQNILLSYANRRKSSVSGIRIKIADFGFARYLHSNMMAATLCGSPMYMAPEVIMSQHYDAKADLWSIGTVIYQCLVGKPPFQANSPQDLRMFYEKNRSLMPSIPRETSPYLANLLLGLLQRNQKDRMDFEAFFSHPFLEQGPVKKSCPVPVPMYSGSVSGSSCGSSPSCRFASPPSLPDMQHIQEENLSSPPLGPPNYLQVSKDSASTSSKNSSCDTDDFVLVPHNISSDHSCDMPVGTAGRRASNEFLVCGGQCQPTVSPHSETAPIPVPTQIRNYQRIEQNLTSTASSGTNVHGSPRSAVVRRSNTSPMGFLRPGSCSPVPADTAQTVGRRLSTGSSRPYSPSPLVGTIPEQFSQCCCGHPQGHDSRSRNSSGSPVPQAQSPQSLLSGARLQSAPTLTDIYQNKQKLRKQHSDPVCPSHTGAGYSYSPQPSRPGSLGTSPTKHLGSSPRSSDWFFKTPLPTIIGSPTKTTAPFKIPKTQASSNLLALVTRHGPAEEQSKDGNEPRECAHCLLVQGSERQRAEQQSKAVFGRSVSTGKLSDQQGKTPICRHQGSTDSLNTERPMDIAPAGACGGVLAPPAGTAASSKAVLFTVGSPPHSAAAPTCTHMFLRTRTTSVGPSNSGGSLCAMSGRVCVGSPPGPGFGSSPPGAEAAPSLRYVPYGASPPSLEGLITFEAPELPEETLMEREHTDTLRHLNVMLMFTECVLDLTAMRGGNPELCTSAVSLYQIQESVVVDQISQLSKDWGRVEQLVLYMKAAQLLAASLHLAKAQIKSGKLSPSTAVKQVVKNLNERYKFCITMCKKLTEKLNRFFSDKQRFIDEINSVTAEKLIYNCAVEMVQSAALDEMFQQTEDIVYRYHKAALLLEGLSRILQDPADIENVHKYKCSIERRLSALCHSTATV
Sequence of UniProt Q16584 (whole entry, looked up): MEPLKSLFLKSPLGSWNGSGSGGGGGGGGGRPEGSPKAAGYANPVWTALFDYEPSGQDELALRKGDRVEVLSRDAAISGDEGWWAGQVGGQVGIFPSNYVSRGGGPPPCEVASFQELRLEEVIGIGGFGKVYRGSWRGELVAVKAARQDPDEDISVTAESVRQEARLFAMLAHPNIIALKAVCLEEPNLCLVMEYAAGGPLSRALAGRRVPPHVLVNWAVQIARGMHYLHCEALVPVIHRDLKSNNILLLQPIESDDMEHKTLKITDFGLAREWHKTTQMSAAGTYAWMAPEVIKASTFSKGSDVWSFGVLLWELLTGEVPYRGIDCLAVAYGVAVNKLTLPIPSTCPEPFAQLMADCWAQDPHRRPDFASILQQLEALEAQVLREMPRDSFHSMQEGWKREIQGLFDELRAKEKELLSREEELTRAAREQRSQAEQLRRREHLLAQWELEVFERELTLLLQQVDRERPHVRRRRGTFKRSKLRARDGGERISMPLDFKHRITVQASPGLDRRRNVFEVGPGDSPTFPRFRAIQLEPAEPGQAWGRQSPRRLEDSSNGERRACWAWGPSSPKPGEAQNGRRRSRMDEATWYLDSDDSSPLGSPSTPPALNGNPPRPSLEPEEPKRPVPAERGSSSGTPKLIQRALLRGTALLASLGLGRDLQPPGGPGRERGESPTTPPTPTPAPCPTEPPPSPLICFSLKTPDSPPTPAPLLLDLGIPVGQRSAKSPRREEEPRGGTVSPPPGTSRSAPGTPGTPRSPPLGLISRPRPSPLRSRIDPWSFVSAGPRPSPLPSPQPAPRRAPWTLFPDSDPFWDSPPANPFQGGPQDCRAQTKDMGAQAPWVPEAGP
Sequence of UniProt Q8WTQ7 (whole entry, looked up): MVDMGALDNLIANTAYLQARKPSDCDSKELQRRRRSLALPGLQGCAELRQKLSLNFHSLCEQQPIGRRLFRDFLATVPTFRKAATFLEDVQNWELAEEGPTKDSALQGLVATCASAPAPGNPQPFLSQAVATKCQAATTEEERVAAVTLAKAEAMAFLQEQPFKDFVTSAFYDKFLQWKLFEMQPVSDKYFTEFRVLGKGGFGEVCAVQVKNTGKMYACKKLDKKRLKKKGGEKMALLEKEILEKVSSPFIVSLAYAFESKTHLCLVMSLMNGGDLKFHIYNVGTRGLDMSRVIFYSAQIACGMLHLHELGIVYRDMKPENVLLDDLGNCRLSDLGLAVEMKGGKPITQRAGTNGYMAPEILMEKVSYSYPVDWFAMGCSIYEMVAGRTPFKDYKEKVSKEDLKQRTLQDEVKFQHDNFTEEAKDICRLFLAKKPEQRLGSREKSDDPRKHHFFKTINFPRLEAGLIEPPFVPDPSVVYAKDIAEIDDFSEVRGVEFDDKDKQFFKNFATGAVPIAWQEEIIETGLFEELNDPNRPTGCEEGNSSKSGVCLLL
Sequence of UniProt P49841 (whole entry, looked up): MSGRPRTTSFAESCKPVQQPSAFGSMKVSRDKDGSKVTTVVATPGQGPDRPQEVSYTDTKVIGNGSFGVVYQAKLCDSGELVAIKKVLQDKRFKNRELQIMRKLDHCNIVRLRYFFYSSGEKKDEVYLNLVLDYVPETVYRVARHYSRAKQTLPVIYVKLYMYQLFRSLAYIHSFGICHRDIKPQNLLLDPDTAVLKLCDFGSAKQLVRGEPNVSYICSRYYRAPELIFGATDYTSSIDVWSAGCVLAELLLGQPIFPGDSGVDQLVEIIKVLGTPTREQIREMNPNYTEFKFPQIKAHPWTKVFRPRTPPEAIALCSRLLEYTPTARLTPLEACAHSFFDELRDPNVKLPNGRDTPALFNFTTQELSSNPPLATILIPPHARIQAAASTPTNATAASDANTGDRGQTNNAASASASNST

Block 1
SMILES: O=C(Nc1cnc(Oc2ccc(F)cc2)nc1)N1CCc2ncccc2[C@@H]1c1ccc(F)cc1
Method: competition with immobilised ligand
Concentration: 1 µM
| target | observed | remaining binding [%] |
| --- | --- | --- |
| Dual specificity tyrosine-phosphorylation-regulated kinase 1A (DYRK1A, Homo sapiens, UniProt Q13627) | cell-free assay | 100 |
| Mast/stem cell growth factor receptor Kit (KIT, Homo sapiens, UniProt P10721, L576P) | cell-free assay | 100 |
| Serine/threonine-protein kinase DCLK3 (DCLK3, Homo sapiens, UniProt Q9C098) | cell-free assay | 96 |
| Serine/threonine-protein kinase BRSK1 (BRSK1, Homo sapiens, UniProt Q8TDC3) | cell-free assay | 87 |
| Serine/threonine-protein kinase 4 (STK4, Homo sapiens, UniProt Q13043) | cell-free assay | 100 |
| Mast/stem cell growth factor receptor Kit (KIT, Homo sapiens, UniProt P10721, V559D/V654A) | cell-free assay | 84 |
| Dual specificity mitogen-activated protein kinase kinase 2 (MAP2K2, Homo sapiens, UniProt P36507) | cell-free assay | 93 |
| Ephrin type-B receptor 1 (EPHB1, Homo sapiens, UniProt P54762) | cell-free assay | 83 |
| Serine/threonine-protein kinase Nek10 (NEK10, Homo sapiens, UniProt Q6ZWH5) | cell-free assay | 100 |
| Tyrosine-protein kinase ABL1, phosphorylated (ABL1, Homo sapiens, UniProt P00519, Q252H) | cell-free assay | 100 |
| Mitogen-activated protein kinase kinase kinase 11 (MAP3K11, Homo sapiens, UniProt Q16584) | cell-free assay | 83 |
| Serine/threonine-protein kinase Nek11 (NEK11, Homo sapiens, UniProt Q8NG66) | cell-free assay | 100 |
| Epidermal growth factor receptor (EGFR, Homo sapiens, UniProt P00533, G719S) | cell-free assay | 72 |
| Epithelial discoidin domain-containing receptor 1 (DDR1, Homo sapiens, UniProt Q08345) | cell-free assay | 95 |
| Homeodomain-interacting protein kinase 1 (HIPK1, Homo sapiens, UniProt Q86Z02) | cell-free assay | 70 |
| Epidermal growth factor receptor (EGFR, Homo sapiens, UniProt P00533, del752-759) | cell-free assay | 70 |
| Homeodomain-interacting protein kinase 2 (HIPK2, Homo sapiens, UniProt Q9H2X6) | cell-free assay | 91 |
| Epidermal growth factor receptor (EGFR, Homo sapiens, UniProt P00533, L861Q) | cell-free assay | 85 |
| Serine/threonine-protein kinase ICK (CILK1, Homo sapiens, UniProt Q9UPZ9) | binding | 92 |
| Tyrosine-protein kinase Yes (YES1, Homo sapiens, UniProt P07947) | cell-free assay | 98 |

Block 2
Target: Ras GTPase-activating protein-binding protein 1, C-terminal RGG region (G3BP1, Homo sapiens, UniProt Q13283)
Sequence of UniProt Q13283 (whole entry, looked up): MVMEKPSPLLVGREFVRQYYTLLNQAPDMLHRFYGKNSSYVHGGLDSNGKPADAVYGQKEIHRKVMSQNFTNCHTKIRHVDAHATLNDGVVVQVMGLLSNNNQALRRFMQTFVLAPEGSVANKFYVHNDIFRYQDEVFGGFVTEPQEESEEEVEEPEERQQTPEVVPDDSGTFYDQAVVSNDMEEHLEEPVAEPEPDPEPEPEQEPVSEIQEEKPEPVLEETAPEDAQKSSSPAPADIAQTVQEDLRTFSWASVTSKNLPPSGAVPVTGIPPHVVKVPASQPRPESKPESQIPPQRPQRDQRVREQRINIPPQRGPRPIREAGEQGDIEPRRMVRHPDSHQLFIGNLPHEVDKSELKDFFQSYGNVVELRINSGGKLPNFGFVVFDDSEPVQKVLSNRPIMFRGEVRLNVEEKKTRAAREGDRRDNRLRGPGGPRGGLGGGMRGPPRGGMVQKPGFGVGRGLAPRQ
Method: RNA Bind-n-Seq
Molecule type: RNA
Sample: in vitro
Concentration: 1 µM
Setting: whole 134-nt RNA, ends assumed
With: 150 mM KCl
Reference: input library
Reading: higher = stronger binding
Constant ends, left off below: GGGAGUUCUACAGUCCGACGAUC … UGGAAUUCUCGGGUGUCAAGG
| Strand | log2 enrichment |
| --- | --- |
| UCCUCAAGUCCUGUGCUACACAUCGUAUGUACCGAAUCGGAGGAAAGGUGGAAAGUAUUAUGUUACGCCGUUCGGAUCUGCACUUCCAGC | -1.25 |
| CCUGUGCUACACAUCGUAUGUACCGAAUCGGGGUUUUUUGGGUUUUUUGGGGUUUUUUGGAAAGUAUUAUGUUACGCCGUUCGGAUCUGC | -1.25 |
| ACCAUGCAGGUGGGCAUCUUUGGGAAGUGGGGCAAGGGGGGGAUAGGGAGGGGGGUAACACUUUGGGAACAGGUGUUCCCAGGUCGUUUC | 2.19 |
| CCUCAAGUCCUGUGCUACACAUCGUAUGUACCGAAUCGGGGAGGAGGGAGGGAAAGUAUUAUGUUACGCCGUUCGGAUCUGCACUUCCAG | 0.597 |
| AGUCCUGUGCUACACAUCGUAUGUACCGAAUCGGGUUUGGGAAAAAAAGGGUUUGGGAAAGUAUUAUGUUACGCCGUUCGGAUCUGCACU | 0.898 |
| UCAAGUCCUGUGCUACACAUCGUAUGUACCGAAUCGGGAAGGGGAAGGGAAGGGAAAGUAUUAUGUUACGCCGUUCGGAUCUGCACUUCC | 2.6 |
| UGGGAGGUGGAUUUUGUUUAUUUUUUUAGCUCAGUUCCAGGGGUGGGAAUUUUUUUUUAAUAUGUGUCAUGAAUAAAGUUGUUUUUGAAA | 2.89 |
| CUGUGCUACACAUCGUAUGUACCGAAUCGGCCCCCCCGGGGCCCCCCCGGCCCCCCCGGGGAAAGUAUUAUGUUACGCCGUUCGGAUCUG | -1.82 |

Block 3
Compound: O=C1NC(=O)c2c1c1c3ccccc3[nH]c1c1[nH]c3cc(Br)ccc3c21
Observed: enzyme activity
Mode: inhibitor
Concentration: 0.5 µM
Reference: control
| target | remaining activity [%] |
| --- | --- |
| Rhodopsin kinase GRK7 (GRK7, Homo sapiens, UniProt Q8WTQ7) | 98.2 |
| Activin receptor type-1B (ACVR1B, Homo sapiens, UniProt P36896) | 101 |
| Casein kinase I isoform gamma-2 (CSNK1G2, Homo sapiens, UniProt P78368) | 89.5 |
| Serine/threonine-protein kinase TBK1 (TBK1, Homo sapiens, UniProt Q9UHD2) | 53.5 |
| Mitogen-activated protein kinase 3 (MAPK3, Homo sapiens, UniProt P27361) | 108 |
| Fibroblast growth factor receptor 1 (FGFR1, Homo sapiens, UniProt P11362) | 85.3 |
| Serine/threonine-protein kinase Nek6 (NEK6, Homo sapiens, UniProt Q9HC98) | 104 |
| Tyrosine-protein kinase JAK3 (JAK3, Homo sapiens, UniProt P52333) | 77 |
| Glycogen synthase kinase-3 beta (GSK3B, Homo sapiens, UniProt P49841) | 63.7 |
| Macrophage-stimulating protein receptor (MST1R, Homo sapiens, UniProt Q04912) | 101 |
| Tyrosine-protein kinase FRK (FRK, Homo sapiens, UniProt P42685) | 93.9 |
| Serine/threonine-protein kinase ULK2 (ULK2, Homo sapiens, UniProt Q8IYT8) | 86 |
| Fibroblast growth factor receptor 3 (FGFR3, Homo sapiens, UniProt P22607) | 86.2 |

Block 4
Target: Interferon regulatory factor 7, full length, phosphomimetic (IRF7, Homo sapiens, UniProt Q92985, residues 1-503, S101K/S471D/S472D/S475D/S476D/S477D/S483D/S484D/S487D)
Method: protein-binding microarray
Molecule type: double-stranded DNA, one strand shown
Sample: in vitro
Concentration: 250 nM
Setting: 60-bp whole probe
With: salmon DNA 0.4 mg/ml
Reference: random background probes
Reading: higher = stronger binding
Constant ends, left off below: GCCTAGCAC … GTCTTGATTCGCTTGACGCTGCTG
Residues (chain): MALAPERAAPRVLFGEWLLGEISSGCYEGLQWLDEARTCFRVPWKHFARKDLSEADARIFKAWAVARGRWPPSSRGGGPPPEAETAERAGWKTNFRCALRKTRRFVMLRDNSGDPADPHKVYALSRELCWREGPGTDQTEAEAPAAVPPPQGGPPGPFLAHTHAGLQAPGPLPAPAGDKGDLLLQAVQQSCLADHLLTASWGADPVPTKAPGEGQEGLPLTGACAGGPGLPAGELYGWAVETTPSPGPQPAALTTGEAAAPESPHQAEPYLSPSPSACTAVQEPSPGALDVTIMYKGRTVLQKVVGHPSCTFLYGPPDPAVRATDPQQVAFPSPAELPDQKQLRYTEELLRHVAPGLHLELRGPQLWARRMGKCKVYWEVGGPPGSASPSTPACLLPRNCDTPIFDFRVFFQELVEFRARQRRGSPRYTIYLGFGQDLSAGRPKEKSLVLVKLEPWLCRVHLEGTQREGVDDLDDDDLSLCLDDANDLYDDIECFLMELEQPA
| Strand | log fluorescence |
| --- | --- |
| GACGGACTGGGGACGGGGGACGTGCTA | 1.73 z-score |
| TTAGGTATCGATTTTCGGTTAGTGCTA | 4.67 z-score |
| GACGGTCTCGGTTTCGGCACGTGCTAG | 7.1 z-score |
| ATAGGTATCGACTATCGGTTAGTGCTA | 0.326 z-score |
| TTAGCTATCGGGACTGGATTAGTGCTA | -0.758 z-score |
| CTGCATTACAGCTATTTTTAGGTGCTA | 0.189 z-score |
| GACGCTCTCCTTCTCCTGACGTGCTAG | 0.285 z-score |
| TCATGTCCCCCTTTTATACTGTGCTAG | 0.955 z-score |

For quick reference, copied from above (block 3):
| target | remaining activity [%] |
| --- | --- |
| Rhodopsin kinase GRK7 (GRK7, Homo sapiens, UniProt Q8WTQ7) | 98.2 |
| Serine/threonine-protein kinase ULK2 (ULK2, Homo sapiens, UniProt Q8IYT8) | 86 |
| Serine/threonine-protein kinase TBK1 (TBK1, Homo sapiens, UniProt Q9UHD2) | 53.5 |
